Measurements collected from several papers.
Numbered parts are unrelated; each lists some results of a single study.

Study 1
Target: RING finger protein unkempt homolog, zinc fingers 1-6, GST-SBP tag (UNK, Homo sapiens, UniProt Q9C0B0, residues 30-357)
Sequence of UniProt Q9C0B0 (30-357, looked up): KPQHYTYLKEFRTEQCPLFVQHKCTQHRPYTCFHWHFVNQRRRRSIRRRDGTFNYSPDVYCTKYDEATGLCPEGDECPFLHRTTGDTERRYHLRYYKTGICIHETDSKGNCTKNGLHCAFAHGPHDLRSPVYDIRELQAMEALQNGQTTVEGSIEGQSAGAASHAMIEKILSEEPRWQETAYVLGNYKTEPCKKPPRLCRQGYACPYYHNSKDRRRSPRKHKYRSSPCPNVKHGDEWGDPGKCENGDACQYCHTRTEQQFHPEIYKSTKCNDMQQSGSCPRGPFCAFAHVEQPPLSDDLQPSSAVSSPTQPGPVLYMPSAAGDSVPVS
Method: RNA Bind-n-Seq
Molecule type: RNA
Sample: in vitro
Tested at: not given
Notes: RNA with constant flanks, ends assumed
Baseline: input RNA pool
Reading: higher = stronger binding
Measurement: bound/input enrichment
Constant ends, left off below: GGGAGUUCUACAGUCCGACGAUC … CAACAGAGGAUUGAGCAUCA
UUGUAUUGUUGAUGAUAAGUGUUGACAUUGGGUAGUGUAGAAGCAACAAGCAUGUCCUUGCCGUACAGGUACAGUGAAGGAUAGAACACACUUUCGUUGAUACAAAAAUUUAAAUAGUUA: 0.455 ratio
GAGGUAGAUCAAGACCUCAUUCCACUGUUAGUGAAAGAAACGGAAGCAAGAUUUCCAGAUGCCGCAAGUGGAUAUGUUGAAGAAAUAAUUCAUUUGAAAAAUUACUAUGAUUUGAAUGUA: 0.297 ratio
GAACGAGGACGCCUGAAGGAAGAGCUGGAAGAGGCUCGGGACAUAGCCCGGCGGCGCUCUUCCGGGAAUAUCAAGUUUAUUGGAGAGUUGUUCAAACUGAAGAUGUUAACAGAGGCAAUA: 0.508 ratio
CCAGGAAGAAAGUGAAUCCUGAGACCAGACAGAAAGGCCAGGUUCUGGGAGAAGUAGACCCCGUUGGCAUAGUGAGGCUCACAGAAAACAGGAAGCCCUUUGUUCCGGAGAACAGCCCAG: 0.225 ratio
UACUUAAAUGAAAUAAAACCUCCCAUCAUACACUAUGACCUCAAACCAGGUAAUAUCCUUUCCGUAAAUGGUACAGCAUGUGGAGAGAUAAAAAUUACAGAUUUUGGUCUUUCCAAGAUC: 0.199 ratio
CGUUCUGCUAACACUAUCAAUUAUGCAUCGUGUUGAACGAAGCUUCGGGGAGGGGGAGGCCCGCAGGCGGCAGGAGGAAAAGGGUCCGGGAGAGCCAGGCAGCGCAGUUCAGCAGGUCCC: 0.245 ratio
GAUUUAGUAAAUGAAAUUUGACCAAAUGGAAGAAUCAUGUUAGUUCUGACCUCAAUACUACCGUAACUUUUAGGCGUGGGUGUAGAAGUUUAUAGGUUUCUAUUGACAGUUAUUGUAAAU: 1.94 ratio
AAAAUUGUCCGAUGCCAUGAACACAUAGAAAUCCUUACAGUAAAUGGAGAAUUACUGUUUUUCCGACAAAGAGAAGGGCCUUUUUAUCCAACUUUAAGAUUACUUCAUAAAUAUCCUUUU: 0.427 ratio
GAAAAUGCUUUUGAGCGACUGCUGGACAUUAUUACAGAGGAGGGGAACAGUGACGGAGGUACCGCCGUGGAAGAUUGUUUGAUUUUACUUCAAAACUUGUUAAAAACCAACAAUUCCAAU: 0.332 ratio
CCCUAAACUGCAUAAUUCUGAAGUUAUAUUUCCUAUACCAUUUCCGUAAUUCUUAUUCCAUAUCCGAAAACUUUGUUAGGCCAAAGACAAAUAGUAGGCAAGAUGGCACAGGGCAUGAAA: 0.507 ratio
CUGAUUUGUUUUGUGAUUUUUAACUUAUGAGGCAAGAAAGGUCUUCCUUCAAUAUUGUCUCUCCGGGAAUCUCUCUCUCAGUGUUUGAACUUAACUUGUGCUUGAAAUUCUACAGUUUCA: 0.107 ratio

Study 2
Target: RNA binding protein fox-1 homolog 2, RRM domain, GST-SBP tag (RBFOX2, Homo sapiens, UniProt O43251-10, residues 100-194)
Method: RNA Bind-n-Seq
Molecule type: RNA
Sample: in vitro
Tested at: 365 nM
Notes: natural RNA segment, single round, ends assumed
Baseline: no-protein control
Reading: higher = stronger binding
Measurement: RBNS enrichment (R)
Constant ends, left off below: GGGAGUUCUACAGUCCGACGAUC … UGGAAUUCUCGGGUGCCAA
Construct (chain): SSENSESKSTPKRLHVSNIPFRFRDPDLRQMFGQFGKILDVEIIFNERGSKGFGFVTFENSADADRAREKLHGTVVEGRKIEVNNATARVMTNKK
UGAGUCUUGGAAAACACCCCAACCCCGGAAAUGUGUGGGAAAAAGAAAACAAAAACUUUCCAAAUUCAACGGUCCUGUGCAGUUUUUUUGGGGGUGGGUGCUGUUAGAUC: 0.534
GAAUGGUGGGGUUCUAGCUUGGUCACUUUCAUUUCUUGCCAUCAUAAAAACUAGUAGGCUGUGGAGUGCGCUUCCUGUUUGUGUCAUCUGGUCGUAGAACCUUUUCCAAA: 0.482
CAGGCACUGUGUUAGGCGCUUUUAUAUAGAUCCUCGUUAGGAUGAGACUAAGGGAUGAGGACAUCUCUUUAUAAAAGGCCCCUAAGUAAUGGAUAAACAGAAACACUUAG: 0.744
AUCUUCCCAUCGGCUGUGGCAAGCUCUUCCCCUGUGUGGAAUUUUGUUAUCUUUAUUUAGCUGAGGUUAAAUUAAUCUCUGUUGUGCAAGAAAAACAUGAAGCUUGCCCC: 0.344
UUUACCAUAAUGAGUCUUAAGUAGGUUCAUGAUCUACAUUGGGGCCUGGGAUUAUUUUUUUAAUUUUAAGUUUGCAUGAGAUAGCCUAAUAAAUGGAGGUGGGGCCAGGC: 6.03
UGUUCACUUUUGUAAUAUUGUCCUGGGCCUGUGUUGGGGUGUUGGGGGAAGCUGGGCAUCAGUGGCCACAUGGGCAUCAGGGGCUGGCCCCACAGAGACCCCACAGGGCA: 0.487
UAAUGCCAUCUUGAACUCCCUGUAAUAGUUGGAGACUGCACUUCCUGUCCCUAAAGGAAUGUGCGUCUAUGGCAGGUAGGCAACUCGGUCCUAUCACAUACCAAGUAGUG: 0.235
AGUAGGUGGCGGAAGGACAUGGACACUGUCUAUCUCUGCUCUGUUGUAAUAAAUGUGAGAUCUUGGAUGUGUCUGCUCCUGGAAGCUGGGUAGUUCCUGCUGUUUGCAGG: 0.521
UAAGUAUAGCAACUCAAACCAGACCUGCAUCCAUCCGAGACAAACGUUCCUCCUUCACCCUUGUUUUUACUUGAAAUUCGCUAGAAGAAAUGGCGAGCAGACAUCUGUUC: 0.62
UUCCACGGCUGGAUACCUGUGUGUCUCCAUAAAAGUCCUGUCACCAAGGACGUUAAAGGCAUUUUAUUCCAGCGUCUUCUAGAGAGCUUAGUGUAUACAGAUGAGGGUGU: 0.335
CAAACAAAUAAAUUGUAAUCAAAAGAGCUCUAAAUUUGUAAUUUCUUUCUCCUUUCAAAAAAUGUCUACUUUGUUUUGGUCCUAGGCAUUAGGUAAUAUAACUGAUAAUA: 0.396
GUGUGUCGGGCUUAUUAUUGUGACCAUCCUGCUGCUCCAGAGUGCCUUUCCAGGUUUCCUUUAGCUUCCCUGCUUCCUGGGAAUCAGGAGCCUGGACACUGCCAUCUCUA: 0.372

Study 3
Target: Interferon regulatory factor 7, full length, phosphomimetic (IRF7, Homo sapiens, UniProt Q92985, residues 1-503, S471D/S472D/S475D/S476D/S477D/S483D/S484D/S487D)
Method: protein-binding microarray
Molecule type: double-stranded DNA, one strand shown
Sample: in vitro
Tested at: 2200 nM top
Notes: 60-bp whole probe
With: salmon DNA 0.4 mg/ml
Baseline: random background probes
Reading: higher = stronger binding
Measurement: fitted relative affinity
Constant ends, left off below: GCCTAGCAC … GTCTTGATTCGCTTGACGCTGCTG
Residues (chain): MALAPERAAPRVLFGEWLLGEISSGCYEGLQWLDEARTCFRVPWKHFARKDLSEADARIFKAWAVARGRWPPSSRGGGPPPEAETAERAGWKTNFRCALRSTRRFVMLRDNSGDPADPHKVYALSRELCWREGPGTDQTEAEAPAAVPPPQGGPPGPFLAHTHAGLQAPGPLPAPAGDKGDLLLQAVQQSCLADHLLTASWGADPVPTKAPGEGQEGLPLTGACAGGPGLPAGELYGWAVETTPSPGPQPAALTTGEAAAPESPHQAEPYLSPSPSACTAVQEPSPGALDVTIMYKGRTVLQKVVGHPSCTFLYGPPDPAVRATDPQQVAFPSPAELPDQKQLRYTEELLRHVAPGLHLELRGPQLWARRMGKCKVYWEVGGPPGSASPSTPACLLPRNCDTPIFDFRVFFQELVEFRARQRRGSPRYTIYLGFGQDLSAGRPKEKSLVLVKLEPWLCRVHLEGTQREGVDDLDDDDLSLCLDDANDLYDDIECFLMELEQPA
CTCCTGCAGCTGCCCTCCTGGTGCTAG: 0.373 z-score
GACGGTATCCTTATCCTGGCGTGCTAG: 0.692 z-score
TTAGCACTGGGTATCGGTTAGTGCTAG: 0.106 z-score
GGCGGACTGGACTTTCGGGACGTGCTA: 1.59 z-score
TCATCTAACCTCTCTAATACTGTGCTA: 0.859 z-score
TTATAACTGAGTTTCGATTAGTGCTAG: 4.2 z-score
TCCATTTTGGTTTTCATTATGTGCTAG: 3.43 z-score
TCATTTATATACCTGAAACTGTGCTAG: 0.795 z-score
TGATTTTGGTCTTTCTGTTTGTGCTAG: 4.14 z-score
AGCAAATTATATCTTATATCGTGCTAG: -0.647 z-score
GACGGACTGGACACTGAGGACGTGCTA: -0.834 z-score
TCAAGTCTCAAAATTAGACTGTGCTAG: -0.585 z-score
TTAGGTATCGGGTATCGGTTAGTGCTA: 0.572 z-score
TTAGAGCTCAGTTTCGATTAGTGCTAG: 5.41 z-score
TTAGGTATCGACACTGGGTTCGTGCTA: 0.234 z-score
GACGAACTGAGACGGGAGACGTGCTAG: -0.165 z-score
TTAGGTTTCCTTCTCCTTTCGTGCTAG: 3.12 z-score

Study 4
Target: Histone acetyltransferase KAT6A, both winged helices, GST fusion (KAT6A, Homo sapiens, UniProt Q92794, residues 1-181)
Method: protein binding microarray
Molecule type: double-stranded DNA, one strand shown
Sample: in vitro
Tested at: not given
Notes: 8-mer, flanks averaged, mean of 2 arrays, mostly near background
Baseline: not given
Reading: higher = stronger binding
Measurement: E-score
Construct (chain): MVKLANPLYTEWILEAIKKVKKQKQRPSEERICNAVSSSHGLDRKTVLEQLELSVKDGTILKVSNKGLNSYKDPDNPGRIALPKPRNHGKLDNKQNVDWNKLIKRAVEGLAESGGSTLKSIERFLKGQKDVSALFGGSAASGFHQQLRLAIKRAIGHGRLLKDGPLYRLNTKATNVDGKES
CATAGCAC: -0.0488
TGCCTTAA: -0.219
GTTCCCGA: 0.172
ACGATAAT: -0.066
CAGAGAGG: -0.253
AGTCTTCC: -0.0182
CCGTCGAG: 0.209
GAGTAGAA: -0.0818
ACCCTGTG: -0.0671
CGGGACCC: 0.225
ATTAAATG: -0.152
GACCAAGA: -0.154
GCAAGCCC: -0.0113
AGGGACAA: 0.0432
ATTGCTTC: -0.00724
GGTGAGTA: -0.175
TTATTGAA: -0.231
ACGGATAA: 0.26
ATTGCGAC: 0.201
AGACGTGC: 0.0535
CACGCTGG: -0.0607
AGCGGTAT: 0.226
GAGCCAAC: -0.206
GAACTGAC: -0.0135
AGTATGTA: -0.127

Some of these lines once more (study 4):
CAGAGAGG: -0.253
CACGCTGG: -0.0607
ATTGCTTC: -0.00724
AGCGGTAT: 0.226
AGTATGTA: -0.127
AGGGACAA: 0.0432
ATTAAATG: -0.152
GAGCCAAC: -0.206
CCGTCGAG: 0.209
CGGGACCC: 0.225
